Experimental data gathered from unrelated publications.
A part holds a random share of what one study measured.
Sequence of UniProt Q16832 (whole entry, looked up): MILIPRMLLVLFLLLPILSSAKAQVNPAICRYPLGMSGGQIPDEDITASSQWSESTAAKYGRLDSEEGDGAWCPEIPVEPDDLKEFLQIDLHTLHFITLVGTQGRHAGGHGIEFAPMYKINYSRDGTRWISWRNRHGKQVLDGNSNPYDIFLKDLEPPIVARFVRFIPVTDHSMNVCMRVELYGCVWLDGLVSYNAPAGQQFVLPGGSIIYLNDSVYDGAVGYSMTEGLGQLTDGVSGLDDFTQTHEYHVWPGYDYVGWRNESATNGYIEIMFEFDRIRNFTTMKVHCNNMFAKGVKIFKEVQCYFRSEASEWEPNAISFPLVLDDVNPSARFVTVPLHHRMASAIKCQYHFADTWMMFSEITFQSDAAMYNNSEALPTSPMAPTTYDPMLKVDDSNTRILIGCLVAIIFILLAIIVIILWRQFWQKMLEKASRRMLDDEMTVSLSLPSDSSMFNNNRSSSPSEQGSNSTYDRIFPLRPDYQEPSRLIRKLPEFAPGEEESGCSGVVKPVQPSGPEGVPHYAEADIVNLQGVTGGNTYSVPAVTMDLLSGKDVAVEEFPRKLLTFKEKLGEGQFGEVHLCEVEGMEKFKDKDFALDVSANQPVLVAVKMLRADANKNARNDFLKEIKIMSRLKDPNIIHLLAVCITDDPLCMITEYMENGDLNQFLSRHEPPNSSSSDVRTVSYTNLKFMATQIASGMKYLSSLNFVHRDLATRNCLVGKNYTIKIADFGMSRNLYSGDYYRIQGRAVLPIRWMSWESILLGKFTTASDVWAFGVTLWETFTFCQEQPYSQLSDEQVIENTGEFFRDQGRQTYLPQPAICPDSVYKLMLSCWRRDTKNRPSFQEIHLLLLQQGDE
Sequence of UniProt P15056 (whole entry, unmodified, looked up): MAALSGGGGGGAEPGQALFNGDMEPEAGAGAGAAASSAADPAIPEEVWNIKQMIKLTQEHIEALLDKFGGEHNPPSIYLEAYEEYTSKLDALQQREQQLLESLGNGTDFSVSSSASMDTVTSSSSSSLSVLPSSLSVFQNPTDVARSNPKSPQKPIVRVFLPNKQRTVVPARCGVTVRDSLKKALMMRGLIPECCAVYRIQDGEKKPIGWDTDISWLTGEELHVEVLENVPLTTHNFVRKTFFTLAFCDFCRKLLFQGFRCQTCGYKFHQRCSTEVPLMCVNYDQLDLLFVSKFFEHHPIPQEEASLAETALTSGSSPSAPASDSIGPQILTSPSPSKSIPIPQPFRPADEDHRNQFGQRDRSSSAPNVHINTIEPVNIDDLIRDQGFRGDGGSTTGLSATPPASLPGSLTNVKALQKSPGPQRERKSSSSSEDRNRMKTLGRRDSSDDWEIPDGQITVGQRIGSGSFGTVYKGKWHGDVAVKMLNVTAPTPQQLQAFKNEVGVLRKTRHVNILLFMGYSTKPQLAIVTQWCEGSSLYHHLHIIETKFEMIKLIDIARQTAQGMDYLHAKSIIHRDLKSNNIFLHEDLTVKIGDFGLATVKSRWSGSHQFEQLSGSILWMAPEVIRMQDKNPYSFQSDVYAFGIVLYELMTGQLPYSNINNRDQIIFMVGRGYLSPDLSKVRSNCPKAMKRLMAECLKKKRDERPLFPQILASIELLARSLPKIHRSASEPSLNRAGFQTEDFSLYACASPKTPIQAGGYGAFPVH
Sequence of UniProt P08581 (whole entry, looked up): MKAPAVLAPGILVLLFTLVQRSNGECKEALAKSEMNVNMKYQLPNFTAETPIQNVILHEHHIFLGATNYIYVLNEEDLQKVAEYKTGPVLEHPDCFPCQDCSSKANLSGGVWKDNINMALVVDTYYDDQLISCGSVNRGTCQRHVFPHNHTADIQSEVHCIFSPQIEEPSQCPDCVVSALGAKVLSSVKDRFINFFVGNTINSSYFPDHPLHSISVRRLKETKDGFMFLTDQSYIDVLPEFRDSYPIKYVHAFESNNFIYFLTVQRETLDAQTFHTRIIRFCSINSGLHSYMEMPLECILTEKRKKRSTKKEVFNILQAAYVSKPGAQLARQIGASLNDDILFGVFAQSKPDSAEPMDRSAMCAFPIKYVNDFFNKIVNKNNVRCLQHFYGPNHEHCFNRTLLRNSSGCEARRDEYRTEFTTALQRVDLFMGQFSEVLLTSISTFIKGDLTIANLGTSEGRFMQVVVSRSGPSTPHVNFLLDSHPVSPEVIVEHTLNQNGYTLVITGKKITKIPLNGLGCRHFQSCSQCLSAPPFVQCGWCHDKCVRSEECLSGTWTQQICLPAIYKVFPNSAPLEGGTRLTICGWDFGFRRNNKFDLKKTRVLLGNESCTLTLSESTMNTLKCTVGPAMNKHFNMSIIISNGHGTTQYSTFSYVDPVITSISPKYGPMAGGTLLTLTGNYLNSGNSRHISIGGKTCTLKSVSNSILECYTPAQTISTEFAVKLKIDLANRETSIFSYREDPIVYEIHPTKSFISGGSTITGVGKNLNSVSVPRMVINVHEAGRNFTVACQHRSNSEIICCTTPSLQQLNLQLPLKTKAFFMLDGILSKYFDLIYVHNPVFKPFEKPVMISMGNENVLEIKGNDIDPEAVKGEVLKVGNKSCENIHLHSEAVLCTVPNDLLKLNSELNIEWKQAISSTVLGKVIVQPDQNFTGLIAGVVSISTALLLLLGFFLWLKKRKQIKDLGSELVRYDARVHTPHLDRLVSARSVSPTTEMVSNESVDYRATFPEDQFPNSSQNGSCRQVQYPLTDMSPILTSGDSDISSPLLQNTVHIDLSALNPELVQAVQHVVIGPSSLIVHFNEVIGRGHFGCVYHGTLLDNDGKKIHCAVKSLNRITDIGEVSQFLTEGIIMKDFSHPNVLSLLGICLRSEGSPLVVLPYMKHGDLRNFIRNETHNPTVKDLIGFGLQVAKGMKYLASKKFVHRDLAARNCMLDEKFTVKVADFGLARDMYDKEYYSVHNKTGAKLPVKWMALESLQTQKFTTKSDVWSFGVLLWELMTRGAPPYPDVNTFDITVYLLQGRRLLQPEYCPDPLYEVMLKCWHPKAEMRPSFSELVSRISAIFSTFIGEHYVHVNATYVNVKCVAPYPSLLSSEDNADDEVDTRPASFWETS
Sequence of UniProt Q16566 (whole entry, looked up): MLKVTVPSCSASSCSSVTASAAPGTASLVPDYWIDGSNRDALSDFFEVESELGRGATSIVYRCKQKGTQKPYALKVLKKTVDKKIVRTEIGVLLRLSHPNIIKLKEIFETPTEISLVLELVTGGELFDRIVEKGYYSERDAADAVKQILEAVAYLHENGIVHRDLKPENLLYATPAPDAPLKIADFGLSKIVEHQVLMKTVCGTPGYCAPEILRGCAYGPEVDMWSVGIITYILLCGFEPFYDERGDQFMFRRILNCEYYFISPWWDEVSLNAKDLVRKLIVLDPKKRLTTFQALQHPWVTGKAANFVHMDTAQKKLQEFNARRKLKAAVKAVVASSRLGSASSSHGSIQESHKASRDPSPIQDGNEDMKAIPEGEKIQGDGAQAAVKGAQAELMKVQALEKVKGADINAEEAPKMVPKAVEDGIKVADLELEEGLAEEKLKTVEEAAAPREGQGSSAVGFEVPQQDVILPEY
Sequence of UniProt Q8N568 (whole entry, looked up): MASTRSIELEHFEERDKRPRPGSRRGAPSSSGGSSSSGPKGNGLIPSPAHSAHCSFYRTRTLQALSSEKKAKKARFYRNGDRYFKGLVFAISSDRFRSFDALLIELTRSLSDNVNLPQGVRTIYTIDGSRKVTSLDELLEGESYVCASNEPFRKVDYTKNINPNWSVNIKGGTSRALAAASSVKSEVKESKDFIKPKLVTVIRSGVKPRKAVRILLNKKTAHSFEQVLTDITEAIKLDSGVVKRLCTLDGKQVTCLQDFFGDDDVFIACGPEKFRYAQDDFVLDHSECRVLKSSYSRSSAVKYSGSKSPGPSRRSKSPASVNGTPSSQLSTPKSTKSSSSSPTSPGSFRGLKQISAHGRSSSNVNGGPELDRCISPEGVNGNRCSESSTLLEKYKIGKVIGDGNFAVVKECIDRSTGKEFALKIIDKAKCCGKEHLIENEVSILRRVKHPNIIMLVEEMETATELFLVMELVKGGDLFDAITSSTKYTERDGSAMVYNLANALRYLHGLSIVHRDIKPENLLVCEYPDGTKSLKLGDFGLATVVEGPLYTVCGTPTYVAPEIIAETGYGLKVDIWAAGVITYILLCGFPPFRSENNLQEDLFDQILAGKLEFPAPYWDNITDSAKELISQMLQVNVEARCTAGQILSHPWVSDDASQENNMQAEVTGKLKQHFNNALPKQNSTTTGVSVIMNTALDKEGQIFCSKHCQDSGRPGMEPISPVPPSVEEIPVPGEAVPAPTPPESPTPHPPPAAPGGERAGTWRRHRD
Sequence of UniProt P06493 (whole entry, looked up): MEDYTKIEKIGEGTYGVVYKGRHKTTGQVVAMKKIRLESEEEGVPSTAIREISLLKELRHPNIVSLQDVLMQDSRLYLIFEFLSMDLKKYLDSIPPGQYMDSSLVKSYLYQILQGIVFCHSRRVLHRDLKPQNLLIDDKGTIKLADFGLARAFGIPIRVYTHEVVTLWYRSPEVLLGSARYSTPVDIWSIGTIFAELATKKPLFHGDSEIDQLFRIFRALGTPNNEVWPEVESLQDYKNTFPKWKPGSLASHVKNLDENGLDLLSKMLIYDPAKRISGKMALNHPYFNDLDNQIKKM

Series 1
SMILES: CC(C)n1cnc(-c2ccc(F)cc2)c1-c1ncc(C(=O)Nc2ccc(N3CCN(C)CC3)cc2)[nH]1
Technique: phase 2a trial
Species: idiopathic pulmonary fibrosis patients
| setting | patients with cough [%] |
| --- | --- |
| dose not given, adverse event grade 3, all dose arms pooled | 0 |
| 60 mg once daily, adverse event grade 3 | 0 |
| 30 mg once daily, adverse event grade 2 | 0 |
| 30 mg once daily, adverse event grade 4 | 0 |
| dose not given, adverse event grade 4, all dose arms pooled | 0 |
| 30 mg once daily, adverse event grade 5 | 0 |

Series 2
Target: Calcium/calmodulin-dependent protein kinase type II subunit alpha (CAMK2A, Homo sapiens, UniProt Q9UQM7)
Sequence of UniProt Q9UQM7 (whole entry, looked up): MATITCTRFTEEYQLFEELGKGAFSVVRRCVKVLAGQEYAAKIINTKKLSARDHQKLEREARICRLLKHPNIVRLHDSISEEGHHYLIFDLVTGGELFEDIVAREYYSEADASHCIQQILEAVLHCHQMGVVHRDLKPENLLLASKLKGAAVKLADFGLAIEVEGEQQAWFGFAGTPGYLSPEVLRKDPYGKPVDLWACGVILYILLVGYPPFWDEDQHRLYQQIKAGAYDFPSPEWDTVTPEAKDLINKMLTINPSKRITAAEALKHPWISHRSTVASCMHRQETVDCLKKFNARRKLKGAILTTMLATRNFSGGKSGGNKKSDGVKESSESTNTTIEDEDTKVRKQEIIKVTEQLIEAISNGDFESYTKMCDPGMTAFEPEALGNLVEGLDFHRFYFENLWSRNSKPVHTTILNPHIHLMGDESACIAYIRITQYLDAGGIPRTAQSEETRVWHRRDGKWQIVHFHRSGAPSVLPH
Observed: enzyme activity
Action: inhibitor
Tested at: 10 µM
| SMILES | inhibition [%] |
| --- | --- |
| OC[C@H]1O[C@@H](Oc2cc3c(O)cc(O)cc3[o+]c2-c2cc(O)c(O)c(O)c2)[C@H](O)[C@@H](O)[C@@H]1O | 8 |
| O=C(O)[C@H](O)Cc1ccccc1 | -9 |
| CCCCCCc1ccc(O)cc1O | -10 |
| Cc1cccc(C)c1OCC(C)N (stereo not drawn) | 2 |
| COc1c(-c2ccc(O)c(O)c2)oc2cc(O)cc(O)c2c1=O | -39 |

Series 3
Compound: CCOc1cc2ncnc(Nc3cccc(Br)c3)c2cc1OCC
Observed: enzyme activity
Action: inhibitor
Tested at: 0.5 µM
Relative to: control
| target | remaining activity [%] |
| --- | --- |
| Cyclin-dependent kinase 1, with cyclin A (CDK1, Homo sapiens, UniProt P06493) | 94.7 |
| DCLK2 (Homo sapiens, UniProt Q8N568) | 99.5 |
| PAK3 (Homo sapiens, UniProt O75914) | 97.6 |
| NEK3 (Homo sapiens, UniProt P51956) | 100 |
| CDC42BPB (Homo sapiens, UniProt Q9Y5S2) | 107 |
| MAP2K1 (Homo sapiens, UniProt Q02750) | 96.1 |
| MET (Homo sapiens, UniProt P08581) | 78.6 |
| MAPK1 (Homo sapiens, UniProt P28482) | 104 |
| CAMK4 (Homo sapiens, UniProt Q16566) | 98.7 |
| CLK3 (Homo sapiens, UniProt P49761) | 85.3 |
| RPS6KA4 (Homo sapiens, UniProt O75676) | 95.4 |
| MINK1 (Homo sapiens, UniProt Q8N4C8) | 77.8 |
| DDR2 (Homo sapiens, UniProt Q16832) | 100 |
| PLK3 (Homo sapiens, UniProt Q9H4B4) | 97.1 |

Series 4
SMILES: c1ccc(N2CCN(Cc3nc4ccccc4[nH]3)CC2)nc1
Technique: competition with immobilised ligand
Tested at: 1 µM
| target | test | remaining binding |
| --- | --- | --- |
| LATS1 (Homo sapiens, UniProt O95835) | binding | 100% |
| BRAF (Homo sapiens, UniProt P15056, V600E) | cell-free assay | 100% |
| KIT (Homo sapiens, UniProt P10721, V559D/V654A) | binding | 100% |
| PTK2B (Homo sapiens, UniProt Q14289) | cell-free assay | 100% |
| SRPK1 (Homo sapiens, UniProt Q96SB4) | binding | 100% |

Excerpt of the above (series 3):
| target | remaining activity [%] |
| --- | --- |
| CLK3 (Homo sapiens, UniProt P49761) | 85.3 |
| MET (Homo sapiens, UniProt P08581) | 78.6 |
